Measurements from different studies.
Parts stem from different laboratories: compare values within a part only. Several values in a cell are separate wells, animals, samples, runs or records. Changes are numbered by the printed parent chain.

Study 1 — partner: H3-3A (Homo sapiens, UniProt P84243); technique: cross-linking MS; notes: hits only
| Substance | interaction screen |
| --- | --- |
| H1-3 (Homo sapiens, UniProt P16402) | cross-linked |
| H2BC12 (Homo sapiens, UniProt O60814) | cross-linked |
| HMGA1 (Homo sapiens, UniProt P17096) | cross-linked |
| H2BC12L (Homo sapiens, UniProt P57053) | cross-linked |
| H2AC7 (Homo sapiens, UniProt P20671) | cross-linked |
| Histone H2A type 1-B/E (Homo sapiens, UniProt P04908) | cross-linked |

Study 2
Structure (SMILES): CC(C)S(=O)(=O)c1cc2c(Nc3ccc4sc(C5CCCC5)nc4c3)ccnc2cc1OCCO
| cell line | observed | technique | concentration | together with | viability |
| --- | --- | --- | --- | --- | --- |
| L929 RIPK3 knockout |  |  | 100 µM |  | 18.2% and 18.3% and 11.2% and 11.1% |
| L929 |  | CCK-8 | 6.25 µM |  | 93% and 90.2% and 86.5% and 89.9% and 84.9% |
| L929 |  | CCK-8 | 25 µM | zVAD | 59.9% and 77.3% and 78.3% |
| L929 RIPK3 knockout |  |  | 25 µM |  | 69.4% and 75.1% and 74.6% and 72.7% and 72.6% |
| L929 |  | CCK-8 | 1.563 µM |  | 100% and 95.8% and 99.5% and 97.7% and 94.9% |
| L929 RIPK3 knockout |  |  | 25 µM | zVAD | 72.8% and 72.3% and 71.1% and 71.4% |
| L929 RIPK3 knockout |  |  | 12.5 µM |  | 84.5% and 90.5% and 83.8% and 89.3% |
| L929 |  | CCK-8 | 6.25 µM | zVAD | 97% and 93.2% and 93.7% and 88.3% |
| L929 RIPK3 knockout |  |  | 1.563 µM |  | 98.5% and 95.1% and 91.4% and 99.8% |
| L929 | necroptosis protection | CCK-8 | 3.333 µM | TNF-α plus zVAD | 91.2% |

Study 3 — technique: aptamer microarray, sandwich; molecule type: DNA with 2'F-ANA; sample: in vitro; concentration: 200 nM; together with: Cy3 exosite-II aptamer, 400 nM; reading: higher = stronger binding; oligonucleotide: GGTTGGTGTGGTTGG
Target: Prothrombin, mature alpha-thrombin (F2, Homo sapiens, UniProt P00734)
Notes: whole 15-mer aptamer, many near background
| Modification | mean fluorescence intensity [a.u.] |
| --- | --- |
| 2'F-ANA at 3 5 6 8 9 10 13 14 | 54.1 |
| 2'F-ANA at 4 7 11 15 | 263 |
| 2'F-ANA at 2 4 5 9 10 12 13 14 | 45.2 |
| 2'F-ANA at 3 8 10 11 12 14 15 | 353 |
| 2'F-ANA at 1 2 3 7 9 10 11 12 13 | 292 |
| 2'F-ANA at 1 2 5 7 8 9 10 12 14 | 48.5 |
| 2'F-ANA at 3 5 6 10 12 13 | 60.2 |
| 2'F-ANA at 1 2 3 8 10 11 12 13 | 84.3 |

Study 4 — target: CCNB3, cyclin fold, Cln2 fusion (human); technique: yeast growth competition, sequencing; sample: yeast; notes: strong parent motif; baseline: not given; reading: higher = stronger binding
Starting sequence: viral docking peptide; KKAKRRLFTISDS; partner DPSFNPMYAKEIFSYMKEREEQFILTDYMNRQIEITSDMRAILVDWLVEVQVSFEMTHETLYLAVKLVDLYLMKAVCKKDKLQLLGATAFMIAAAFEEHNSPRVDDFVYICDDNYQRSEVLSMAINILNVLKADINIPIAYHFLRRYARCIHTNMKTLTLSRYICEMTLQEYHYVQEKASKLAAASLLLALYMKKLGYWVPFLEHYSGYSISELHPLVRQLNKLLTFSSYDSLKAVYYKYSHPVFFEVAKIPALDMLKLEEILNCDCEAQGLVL
| Change | normalised enrichment score |
| --- | --- |
| F8A | 0.166 |
| F8L | 0.536 |
| S13A | 0.385 |
| L7A | 0.36 |
| R5K | 0.217 |
| R6A | 0.62 |
| K2A | 0.527 |
| K4A | 0.24 |

Some of these lines once more (study 2):
| cell line | observed | technique | concentration | together with | viability |
| --- | --- | --- | --- | --- | --- |
| L929 |  | CCK-8 | 6.25 µM | zVAD | 97% and 93.2% and 93.7% and 88.3% |
| L929 RIPK3 knockout |  |  | 1.563 µM |  | 98.5% and 95.1% and 91.4% and 99.8% |
| L929 | necroptosis protection | CCK-8 | 3.333 µM | TNF-α plus zVAD | 91.2% |
